Experimental data pooled from the literature.
Each numbered part is a random draw from the data of one study; scales do not carry over between parts. Substitutions count along the parent as printed.

Study 1 — method: protein binding microarray; molecule type: double-stranded DNA, one strand shown; sample: in vitro; concentration: not given; relative to: not given; direction: higher = stronger binding
Target: Histone acetyltransferase KAT6A, winged helix 2, GST fusion (KAT6A, Homo sapiens, UniProt Q92794, residues 85-181)
Setting: 8-mer, flanks averaged, mean of 2 arrays, mostly near background
Construct (chain): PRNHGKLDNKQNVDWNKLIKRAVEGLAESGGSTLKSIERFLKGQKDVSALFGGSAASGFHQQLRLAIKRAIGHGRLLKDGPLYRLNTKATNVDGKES
Sequence	E-score
ACGCGTTA	-0.12
AAAAAGCA	0.106
ACGTGCAT	-0.21
CCTAACTC	-0.00661
AGTTATAA	0.00392
AGCAAACT	0.119
TGCAAAAA	0.0549
CTGAGTAC	-0.0662
ACCGACTC	-0.0719
CGAATCCG	0.144
AGCAAAGG	0.0457
CTCGGCCC	0.28
CAAGAAAG	0.179
AGCATTCA	0.0495
AGGTCTGA	0.0295
CGACAAAA	0.187
AAACCATG	0.0145
TGAGCGCA	-0.0182
CAACTCAG	0.106
CTAAGGCA	0.0589
ATGCGAGG	-0.0602

Study 2 — method: RNA Bind-n-Seq; molecule type: RNA; sample: in vitro; concentration: 365 nM; relative to: no-protein control; direction: higher = stronger binding
Target: RNA binding protein fox-1 homolog 2, RRM domain, GST-SBP tag (RBFOX2, Homo sapiens, UniProt O43251-10, residues 100-194)
Setting: natural RNA segment, single round, ends assumed
All sequences stand within: GGGAGUUCUACAGUCCGACGAUC … UGGAAUUCUCGGGUGCCAA
Residues (chain): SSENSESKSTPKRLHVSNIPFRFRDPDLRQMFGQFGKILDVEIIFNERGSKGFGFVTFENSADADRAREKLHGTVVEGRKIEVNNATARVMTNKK
Sequence	RBNS enrichment (R)
CCACUUAACUCCAGUGUGGAUGACAGAGCGAGACCCUGCCUCAAAAAAAAAAAAAAAAAAAGAAAGCCACACUUAUUCUUUUCAGUAACCUGCUAGUGCACAGGCUGUAC	0.905
CUGUCACUGGAGAAUAGGAUGUCAGAGCUGGGCAGGACUGGUACCCAUCAUUUGCAGUUUGCAUGUGGGGAAACCAAAGCCCUAAGAAACAACAGUUCCUGGCCCAAAAA	1.37
CUCCUUUCAGUGUUCUUGCUGUUCAAGUUAUUCCUCUCAGACAUCCUCCAUUGUCCCACGCACUCCUUGGCAGCAGAAUGCUGGCAGCUUGUGACCCUCAUGUUUCCUGU	0.56
GACACGGCCUCCUGUUGGAGUCCCAUUUUCUCCAUCAGGGCACGUGGGCGGCUUCCUCAAGCCCGGAGGAGCUCCCAGGCGCACAGGGGCCGCCGGUAACAGGGGCCGCC	0.525
AAUUGAGAUUGAUGUGUUUUCACUGGAUUUUUAUCUCUCUCAACUUCCUGCACUUAACAAUAUGAAAUAGAAACUUUUGUCUUUACUGAGAUGAGGAUAUGUUUGAGAUG	0.487
CUGGAGAUGGCAAAAUCCUCUAAAAUGUCGAGGUCUCUUGAAGACUUGAGAAGCUGUCACAAGGUCACUACAAGCCCAACCUGCCCCUUCACUUUGCCUUCCUGAGUUGG	0.23
ACCUUUUCACUAACCCCACUUCUGUGUGUUCUGCAUGGCGCCUGCCCCAGGGCAUCUGCCAACUCCAGUAUCAGCUCUCACAGUGUACUUGGUACCAUCCCUGGGCUCUG	0.306
UGAUAUUGCCAUGCAUGGUCAUUCAUACUUCUAAUACCAGCACCUAUAAGGCUGAGGCAGAAGGUUCCAGAAUUCAAGGACACUCAGGCCUACAUAUAUAGCAAGACUGU	0.508
GAAUUGUCGCCUCCUGCUCUUUUGUUACUGAGUGAGAUAAGGUUGUUCAAUAAAGACUUUUAUCCCCAAGGUCUCUCUGUGUCUGUUUUCUGGGGUGUCAUGGCUGGAGU	1.97
UCAGGACACUUUACGGGAUCAAAGUGGGUCUACACCAGUGCUGCUUCCUGAAUGUUUGUGUGUGAACCCUUGUUUCCUCCAAAACAAACGACAGCAACGAAAACUCCUUA	0.585
UGAUUGUCACAGAGAUGGUAGAAAUUAUGAUCUGACUGGAAAACAAUCCUGUAUCCCCUCCCAAAGAAUCAUGGGCUUUUUUUUUGAAUAAAAAAGCAGACAAAUAGACU	0.428
GUCAUUGCCAUCACCAUCGCCAGCAUUGAGGAAGAGCCUCUGAAGUGUCAGGACUUUGCAGUGUAGCUCAUGCAAAGAGAGUGUUCUAUAAAAAUCUUGACAGCUGAACU	0.577

Study 3 — method: DHFR PCA, deep sequencing; sample: yeast; added: (+)-ABA 4.8 µM; relative to: wild-type fitted maximum; direction: higher = stronger binding
Target: ABI1, truncated, D143A, DHFR fusion (Arabidopsis thaliana)
Setting: methotrexate growth selection, single substitutions
Starting sequence: PYL1, truncated, DHFR fusion (Arabidopsis thaliana); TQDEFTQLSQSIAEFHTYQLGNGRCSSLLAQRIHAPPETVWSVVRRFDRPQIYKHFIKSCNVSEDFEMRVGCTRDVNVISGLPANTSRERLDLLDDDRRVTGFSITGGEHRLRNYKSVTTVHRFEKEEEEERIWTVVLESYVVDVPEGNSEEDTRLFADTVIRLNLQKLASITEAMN; partner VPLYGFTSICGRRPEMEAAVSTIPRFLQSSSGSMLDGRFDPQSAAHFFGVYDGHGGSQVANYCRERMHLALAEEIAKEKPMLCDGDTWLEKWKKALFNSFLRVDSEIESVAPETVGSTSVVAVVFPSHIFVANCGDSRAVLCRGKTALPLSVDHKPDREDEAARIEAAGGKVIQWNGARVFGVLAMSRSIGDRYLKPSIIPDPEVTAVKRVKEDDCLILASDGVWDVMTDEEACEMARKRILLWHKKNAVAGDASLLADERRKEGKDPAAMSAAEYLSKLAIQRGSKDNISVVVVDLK
Variant	relative binding score [%]
G71A	0.253
T86A	44.6
E127V	76.6
S59I	8.97
A30Y	66.2
L166Q	0.756
N177G	83.1
W41F	-25
S27E	7.6
S140K	-6.12
E139W	40.5
D65G	71.1
D48M	-31
L91T	-2.72
A13P	-4.8
N85F	65.1
A13S	67.8
P50R	5.5
R132F	67.8
T17K	49
K58M	29.2
I12C	14.6
S11P	74.9
I162E	-16.2

Study 4 — method: protein-binding microarray; molecule type: double-stranded DNA, one strand shown; sample: in vitro; concentration: not given; direction: higher = stronger binding
Target: Protein C-ets-1 (ETS1, Homo sapiens, UniProt P14921, residues 1-441, full length assumed)
Sequence of UniProt P14921 (whole entry, looked up): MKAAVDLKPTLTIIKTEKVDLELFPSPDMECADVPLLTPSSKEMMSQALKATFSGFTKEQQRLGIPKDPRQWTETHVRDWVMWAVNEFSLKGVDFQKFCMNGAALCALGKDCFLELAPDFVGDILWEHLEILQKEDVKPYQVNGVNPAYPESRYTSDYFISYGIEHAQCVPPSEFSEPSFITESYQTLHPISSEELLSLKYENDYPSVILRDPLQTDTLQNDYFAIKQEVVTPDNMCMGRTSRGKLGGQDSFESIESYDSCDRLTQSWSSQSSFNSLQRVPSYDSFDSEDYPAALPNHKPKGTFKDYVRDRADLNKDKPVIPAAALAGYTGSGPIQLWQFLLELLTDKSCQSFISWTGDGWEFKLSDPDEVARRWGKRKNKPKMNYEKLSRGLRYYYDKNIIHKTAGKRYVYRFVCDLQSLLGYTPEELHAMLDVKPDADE
Setting: k-mer, scored over probes, only values ≥0.25
Sequence	E-score
CCAACGGA	0.251
GAGGATGA	0.259
CGTCCGCC	0.449
CGGCTTCC	0.433
CGCCGGAC	0.343
CACGGAAG	0.433
AGGACGTA	0.318
CCACATCC	0.448
CCGGATTC	0.422
GGAAATAC	0.451
CCGGGACC	0.292
GAAGGAAC	0.304
CAGGAAGG	0.451
CGAGCGGA	0.332
CCGGGAAC	0.333
AAGTTCCT	0.275
GTAACGGA	0.295
CATCCTGG	0.438
CTCTCCCC	0.281
ATTTCCGA	0.427

Study 5 — method: RNA Bind-n-Seq; molecule type: RNA; sample: in vitro; concentration: 200 nM; setting: whole 134-nt RNA, ends assumed; added: 150 mM KCl; relative to: input library; direction: higher = stronger binding
Target: Ras GTPase-activating protein-binding protein 1, full length (G3BP1, Homo sapiens, UniProt Q13283)
Sequence of UniProt Q13283 (whole entry, looked up): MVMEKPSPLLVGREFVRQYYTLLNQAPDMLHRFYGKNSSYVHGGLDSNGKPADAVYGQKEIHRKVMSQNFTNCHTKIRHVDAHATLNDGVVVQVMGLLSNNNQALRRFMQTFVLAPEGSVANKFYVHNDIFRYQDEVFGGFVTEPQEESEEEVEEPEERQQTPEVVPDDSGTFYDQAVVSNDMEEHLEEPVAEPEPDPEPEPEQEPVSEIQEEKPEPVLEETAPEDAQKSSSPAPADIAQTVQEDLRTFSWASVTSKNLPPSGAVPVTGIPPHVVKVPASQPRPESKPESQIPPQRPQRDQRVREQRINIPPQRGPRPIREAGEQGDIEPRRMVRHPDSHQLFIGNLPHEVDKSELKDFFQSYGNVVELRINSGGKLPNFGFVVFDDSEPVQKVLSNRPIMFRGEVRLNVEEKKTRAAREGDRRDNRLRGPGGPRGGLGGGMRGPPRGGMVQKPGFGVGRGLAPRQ
All sequences stand within: GGGAGUUCUACAGUCCGACGAUC … UGGAAUUCUCGGGUGUCAAGG
Sequence	log2 enrichment
UCCUCAAGUCCUGUGCUACACAUCGUAUGUACCGAAUCGGGAGGGAGGGAGGAAAGUAUUAUGUUACGCCGUUCGGAUCUGCACUUCCAG	1.91
GUCCUGUGCUACACAUCGUAUGUACCGAAUCGGGGUUUUUGGUUUUUGGGGUUUUUGGGAAAGUAUUAUGUUACGCCGUUCGGAUCUGCA	-0.535
GUCAAGUGCUUCUGCUCCUGAUGUGGAUGACCCAGAGGCAUUCCCAGCUCUGGCUUAACUGGAUGCCAUAAGACAACCCUGGUUCCUUUG	0.51
AGUCCUGUGCUACACAUCGUAUGUACCGAAUCAAAGUGUGUGUGUGUGUGUGUGUAAAAAAGUAUUAUGUUACGCCGUUCGGAUCUGCAC	0.272
UCCUGUGCUACACAUCGUAUGUACCGAAUCGGGCCCCCCGGGGCCCCCCGGCCCCCCGGAAAGUAUUAUGUUACGCCGUUCGGAUCUGCA	-0.101
GUCCUGUGCUACACAUCGUAUGUACCGAAUCGGUUUUUUGGUUUUUUGGUUUUUUGGGGAAAGUAUUAUGUUACGCCGUUCGGAUCUGCA	-1.1
GUCCUGUGCUACACAUCGUAUGUACCGAAUCGGGGCCCCCGGCCCCCGGGCCCCCGGGGAAAGUAUUAUGUUACGCCGUUCGGAUCUGCA	-0.847
CACAGACAACACGCACCCACACAGACACAGAGGGAAGGGGUUAAAAUGGGGACAGGGUGCACAGCAGGGCGGGGUAGGACCCCAGCCCCU	1.17
AAGUCCUGUGCUACACAUCGUAUGUACCGAAUCGGGGAGGGGAAAGGGGAAAGGGGAAAGUAUUAUGUUACGCCGUUCGGAUCUGCACUU	0.839
ACCAUGCAGGUGGGCAUCUUUGGGAAGUGGGGCAAGGGGGGGAUAGGGAGGGGGGUAACACUUUGGGAAAAAGUGGUCCCAGGUCGUUUC	1.3
UCAAGUCCUGUGCUACACAUCGUAUGUACCGAAUCGGUGGAAAGGAAAAAAAGGAAAGUAUUAUGUUACGCCGUUCGGAUCUGCACUUCC	-0.804
GUCCUGUGCUACACAUCGUAUGUACCGAAUCGGGCCCCCGGCCCCCGGGGCCCCCGGGAAAGUAUUAUGUUACGCCGUUCGGAUCUGCAC	-1.03
GCAGGAAGUAAAAACAAAUGGCAAUGCUUCGGAUAGUGGCAGGGGUGGGGGUUGCUAAGGAAAGGGUGGGAUGGGAGUGGGUAAAGAGUU	1.05
UGGGAGGUGGAUUUUGUUUAUUUUUUUAGCUCAUUUCCAGGGGAGGGAAUUUUUUUUUAAUAUGUGUCAUGAAUAAAGUUGUUUUUGAAA	0.217

For quick reference, copied from above (study 2):
Sequence	RBNS enrichment (R)
UGAUAUUGCCAUGCAUGGUCAUUCAUACUUCUAAUACCAGCACCUAUAAGGCUGAGGCAGAAGGUUCCAGAAUUCAAGGACACUCAGGCCUACAUAUAUAGCAAGACUGU	0.508
GACACGGCCUCCUGUUGGAGUCCCAUUUUCUCCAUCAGGGCACGUGGGCGGCUUCCUCAAGCCCGGAGGAGCUCCCAGGCGCACAGGGGCCGCCGGUAACAGGGGCCGCC	0.525
AAUUGAGAUUGAUGUGUUUUCACUGGAUUUUUAUCUCUCUCAACUUCCUGCACUUAACAAUAUGAAAUAGAAACUUUUGUCUUUACUGAGAUGAGGAUAUGUUUGAGAUG	0.487
GUCAUUGCCAUCACCAUCGCCAGCAUUGAGGAAGAGCCUCUGAAGUGUCAGGACUUUGCAGUGUAGCUCAUGCAAAGAGAGUGUUCUAUAAAAAUCUUGACAGCUGAACU	0.577
ACCUUUUCACUAACCCCACUUCUGUGUGUUCUGCAUGGCGCCUGCCCCAGGGCAUCUGCCAACUCCAGUAUCAGCUCUCACAGUGUACUUGGUACCAUCCCUGGGCUCUG	0.306
CUGGAGAUGGCAAAAUCCUCUAAAAUGUCGAGGUCUCUUGAAGACUUGAGAAGCUGUCACAAGGUCACUACAAGCCCAACCUGCCCCUUCACUUUGCCUUCCUGAGUUGG	0.23
CUGUCACUGGAGAAUAGGAUGUCAGAGCUGGGCAGGACUGGUACCCAUCAUUUGCAGUUUGCAUGUGGGGAAACCAAAGCCCUAAGAAACAACAGUUCCUGGCCCAAAAA	1.37
